Published values pooled from the literature.
Lines come from different studies, so protocols differ. Several values in a cell are separate wells, animals, samples, runs or records.
PTGS2: Prostaglandin G/H synthase 2 (PTGS2, Homo sapiens, UniProt P35354)
USP5: Ubiquitin carboxyl-terminal hydrolase 5 (USP5, Homo sapiens, UniProt P45974)
Protein-S-isoprenylcysteine O-methyltransferase: Protein-S-isoprenylcysteine O-methyltransferase (Homo sapiens, UniProt O60725)
Coelenterazine h 2-monooxygenase: Coelenterazine h 2-monooxygenase (Renilla reniformis, UniProt P27652)

SMILES | target or system | assay | test system | conditions | endpoint | value
CO[C@@H]1OC[C@@H](O)[C@H](O)[C@H]1O | PTGS2 | enzyme activity, inhibitor |  | 1.95 µg/mL | inhibition | 29.2%
O=C(CCC(F)(F)F)Nc1ccc(C2CCCCC2)cc1 |  | liver microsome stability | human liver microsomes | 1 µM, without NADPH | hepatic clearance | 17 mL/min/kg
Cc1ccc(-n2c(C)cc(C(=O)CN3CCC(C)CC3)c2C)cc1 | USP5 | enzyme activity, inhibitor |  | 17 µM | inhibition | 0%
O=C1c2sc(-c3ccc(N4CCC(F)C4)nc3F)nc2CCN1c1cccnc1 (stereo not shown) | CYSLTR1 (Homo sapiens, UniProt Q9Y271) | ligand displacement, radioligand |  | 1 µM | inhibition | 2%
O=C(NN=C1C=CC(=NO)C=C1)c1ccccc1O | USP5 | enzyme activity, inhibitor |  | 17 µM | inhibition | 36%
CN1CCN(Cc2ccc(-c3ccc(CO[C@H]4CCC[C@@H]4NC(=O)c4cc(-c5cnn(C)c5)cnc4N)cc3)cc2)CC1 | PRKACG (Homo sapiens, UniProt P22612) | enzyme activity, inhibitor |  | 0.1 µM | inhibition | 8%
CCCCCCCCN(CCC(=O)Nc1ccccc1)C(=O)c1ccc[nH]1 | Protein-S-isoprenylcysteine O-methyltransferase | enzyme activity | Sf9 membranes | 50 µM, added: [3H]S-adenosylmethionine, biotin-farnesyl-L-cysteine | inhibition | 75%
Cc1ccc(-c2nn(-c3ccc(S(C)(=O)=O)cc3)cc2C=NN=c2[nH]c(-c3ccc([N+](=O)[O-])cc3)cs2)cc1 | PTGS2 | enzyme activity |  | 1 µM | inhibition | 46.3%
O=C1CC(=O)c2ccc3c4c(ccc1c24)C(=O)CC3=O | USP5 | enzyme activity, inhibitor |  | 17 µM | inhibition | 91%
Brc1ccccc1-c1nnc(CSc2nnnn2-c2ccccc2)o1 | HRH1 (Homo sapiens, UniProt P35367) | ligand displacement, radioligand |  | 10 µM | inhibition | 19%
Cc1ccc2c(c1)sc(-c1ccc(N(C)C)cc1)[n+]2C | Coelenterazine h 2-monooxygenase | luciferase activity, inhibitor, luminescence counter-screen |  | concentration not given, test 2 | inhibition | 90% and 103%
Cc1ccc(-c2nn(-c3ccc(S(C)(=O)=O)cc3)cc2C=NN=c2[nH]c(-c3ccc(Br)cc3)cs2)cc1 (mixture of isomers) | PTGS2 | enzyme activity |  | 100 µM | inhibition | 90.5%
COCC(=O)N1CCc2cc(-c3csc(NC(=O)c4cc(OC)cc(OC)c4)n3)ccc21 | P2Y receptor, rat | radioligand binding |  | 10 µM | inhibition | 9%
CSc1scc2c1C(=O)C(=CN(C)C)CC2 | USP5 | enzyme activity, inhibitor |  | 17 µM | inhibition | 68%
CC(=O)n1cc([C@H]2C=C(C(=O)N3CCN(Cc4ccc5c(c4)OCO5)CC3)O[C@@H](OCc3ccc(CO)cc3)C2)c2ccccc21 | Coelenterazine h 2-monooxygenase | luciferase activity, inhibitor, luminescence counter-screen |  | concentration not given, test 1 | inhibition | 59% and 55.5%
CC=C(C)C(=O)OC1CC2C(C=C(C)C3C(OC(C)=O)CC(=O)C13C)OC(=O)C2C (stereo not shown) | PTGS2 | enzyme activity, inhibitor |  | 3.9 µg/mL | inhibition | 0%
O=C1CCCC2=C1C1(O)C(=O)c3ccccc3C1(O)O2 (stereo not shown) | USP5 | enzyme activity, inhibitor |  | 17 µM | inhibition | 97%
C[Si](C)(C)C[C@H](CN)CC(=O)O | CCKBR (Homo sapiens, UniProt P32239) | cell-free assay, inhibitor |  | 250 µM | inhibition | 1%
Cn1ccc2cc(-n3c(=O)[nH]c4sc5c(c4c3=O)CCCC5)ccc21 | Androgen receptor (AR, Homo sapiens, UniProt P10275) | radioligand binding |  | 10 µM, added: testosterone | inhibition | -4%

SMILES | target or system | assay | test system | conditions | endpoint | value
CCOC(=O)C(C#N)C1(O)C(=O)c2ccccc2C1=O (stereo not shown) | USP5 | enzyme activity, inhibitor |  | 17 µM | inhibition | 57%
CN1CC[C@@H](COc2cnc(C#N)cc2-c2ccn3nc(NC(=O)C4CC4)cc3c2)C1 | CDKL4 (Homo sapiens, UniProt Q5MAI5) | enzyme activity, inhibitor |  | 1 µM | inhibition | -4%
C/C=C(/C)C(=O)O[C@@H]1C=C(C)CC[C@]2(O)[C@@H](C(C)C)CC(=O)[C@]12C | PTGS2 | enzyme activity, inhibitor |  | 0.24 µg/mL | inhibition | 0%
COc1ccc(C2NC([O-])=C(C#N)C(=O)C2[n+]2ccccc2)cc1 (stereo not shown) | USP5 | enzyme activity, inhibitor |  | 17 µM | inhibition | 76%
CCCCCCCCN(CCC(=O)Nc1ccccc1)C(=O)c1ccc(F)cc1 | Protein-S-isoprenylcysteine O-methyltransferase | enzyme activity | Sf9 membranes | 50 µM, added: [3H]S-adenosylmethionine, biotin-farnesyl-L-cysteine | inhibition | 42%
CS(=O)(=O)c1ccc(-n2cc(C=NN=c3[nH]c(-c4ccc(Br)cc4)cs3)c(-c3ccc([N+](=O)[O-])cc3)n2)cc1 (mixture of isomers) | PTGS2 | enzyme activity |  | 10 µM | inhibition | 68%
CC(NN)c1nn(-c2ccccc2)c(=O)c2c(N)scc12 (stereo not shown) | USP5 | enzyme activity, inhibitor |  | 17 µM | inhibition | 69%
CC(=O)[C@]12NC(C)(C)C[C@@]1(C)C(=O)C1=C2c2c(c3c4n2C(C)(C)CC2=C4[C@@]4(CC(C)(C)N[C@@](C)(C4)C2=O)CC3(C)C)C(=O)C(C)(C)N1 (racemic) | KCNQ2 (Homo sapiens, UniProt O43526) | ion current, inhibitor, patch clamp | HEK-293T | 40 µM | inhibition | 7%
C/C=C/C(=O)Nc1ccc2nc(NCCCCCN(C)C)nc(NCCCCCCN(C)C)c2c1 | PRMT6 (Homo sapiens, UniProt Q96LA8) | enzyme activity, inhibitor, radiometric |  | 50 µM | inhibition | 82%
CC(C)Cc1ccc(-c2nn(-c3ccc(S(C)(=O)=O)cc3)cc2C=NN=c2[nH]c(-c3ccc(Br)cc3)cs2)cc1 | PTGS2 | enzyme activity |  | 10 µM | inhibition | 82.7%
O=C1c2sc(-c3ccc(N4CCC(CO)CC4)nc3F)nc2CCN1c1cccnc1 | TNF-alpha (human) | radioligand binding, BioPrint binding panel |  | 1 µM, added: agonist radioligand | inhibition | -16%
COc1cc(OC)c(F)c(/C=C/c2cnc3ccn(S(=O)(=O)c4cn(CCF)cn4)c3n2)c1F | ABL1 (Homo sapiens, UniProt P00519) |  |  | 1000 nM | inhibition | 0%
CCCCCCCCN(CCC(=O)Nc1ccccc1)C(=O)c1cccn1C | Protein-S-isoprenylcysteine O-methyltransferase | enzyme activity | Sf9 membranes | 50 µM, added: [3H]S-adenosylmethionine, biotin-farnesyl-L-cysteine | inhibition | 75%
COc1ccccc1Nc1nc(NCC2CCCO2)c2ccccc2n1 (stereo not shown) | Coelenterazine h 2-monooxygenase | luciferase activity, inhibitor, luminescence counter-screen |  | concentration not given, test 1 | inhibition | 78% and 84.5%
COc1cc(C(C)=O)ccc1OCC(O)CN1CCN(c2cccc(Cl)c2)CC1 (stereo not shown) | DRD3 (Homo sapiens, UniProt P35462) | enzyme activity, inhibitor |  | 10 µM | inhibition | 9.8%
c1cc(C2CCCCC2)ccc1-c1cnc(N2CCOCC2)nc1 |  | liver microsome stability | human liver microsomes | 1 µM, without NADPH | hepatic clearance | 10 mL/min/kg
C=CC(=O)Nc1cccc(-c2cnc3[nH]cc(C(=O)NC(C)(C)C)c3n2)c1 | GRK6 (Homo sapiens, UniProt P43250) | enzyme activity, inhibitor |  | 0.1 µM | inhibition | 7%
CN(C)C/C=C/C(=O)Nc1ccc2nc(NCCCCCN(C)C)nc(NCCCCCCN(C)C)c2c1 | PRMT3 (Homo sapiens, UniProt O60678) | enzyme activity, inhibitor, radiometric |  | 50 µM | inhibition | 92%

Repeated from above:
SMILES | target or system | assay | test system | conditions | endpoint | value
CSc1scc2c1C(=O)C(=CN(C)C)CC2 | USP5 | enzyme activity, inhibitor |  | 17 µM | inhibition | 68%
c1cc(C2CCCCC2)ccc1-c1cnc(N2CCOCC2)nc1 |  | liver microsome stability | human liver microsomes | 1 µM, without NADPH | hepatic clearance | 10 mL/min/kg
CCCCCCCCN(CCC(=O)Nc1ccccc1)C(=O)c1ccc(F)cc1 | Protein-S-isoprenylcysteine O-methyltransferase | enzyme activity | Sf9 membranes | 50 µM, added: [3H]S-adenosylmethionine, biotin-farnesyl-L-cysteine | inhibition | 42%
Cc1ccc(-c2nn(-c3ccc(S(C)(=O)=O)cc3)cc2C=NN=c2[nH]c(-c3ccc([N+](=O)[O-])cc3)cs2)cc1 | PTGS2 | enzyme activity |  | 1 µM | inhibition | 46.3%
